Experimental data pooled from the literature.
A part holds a random share of what one study measured. Positions count from the first letter of the parent shown.

Series 1
Target: Histone acetyltransferase KAT6A, winged helix 2, GST fusion (KAT6A, Homo sapiens, UniProt Q92794, residues 85-181)
Method: protein binding microarray
Molecule type: double-stranded DNA, one strand shown
Medium: in vitro
Concentration: not given
Notes: 8-mer, flanks averaged, mean of 2 arrays, mostly near background
Relative to: not given
Reading: higher = stronger binding
Target sequence (chain): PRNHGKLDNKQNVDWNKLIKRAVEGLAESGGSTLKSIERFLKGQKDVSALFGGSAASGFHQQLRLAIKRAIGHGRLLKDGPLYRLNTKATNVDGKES
Sequence | E-score
TAAGAAGA | 0.133
GCGGATGA | 0.0622
CCGGCGGC | 0.246
TAATCAGA | 0.0455
TACAACGA | 0.0107
GATCGGCC | 0.16
ACTGAAGA | -0.0453
CACGAAAA | 0.0318
GCCATCCA | 0.0213
CTGTAGGC | -0.0448
ATGATCCA | -0.0828
GTACTGCA | -0.0084
CATGGCAG | 0.155
CTAGTATA | 0.00046
AACCAATT | 0.067
CCATTATC | 0.0866
CATATGCG | -0.0963
ACGTTAGC | 0.0495
GCACTCCA | 0.105
GTTGTCAA | -0.119
TCGTTACA | -0.109
AATCCATC | -0.00386
AGTGTCAG | -0.0114
TAGAACTA | 0.11
ATTGTCAA | -0.0783

Series 2
Target: Sal-like protein 4, full length isoform A (SALL4, Homo sapiens, UniProt Q9UJQ4, residues 1-1053)
Chain of UniProt Q9UJQ4 (whole entry, looked up): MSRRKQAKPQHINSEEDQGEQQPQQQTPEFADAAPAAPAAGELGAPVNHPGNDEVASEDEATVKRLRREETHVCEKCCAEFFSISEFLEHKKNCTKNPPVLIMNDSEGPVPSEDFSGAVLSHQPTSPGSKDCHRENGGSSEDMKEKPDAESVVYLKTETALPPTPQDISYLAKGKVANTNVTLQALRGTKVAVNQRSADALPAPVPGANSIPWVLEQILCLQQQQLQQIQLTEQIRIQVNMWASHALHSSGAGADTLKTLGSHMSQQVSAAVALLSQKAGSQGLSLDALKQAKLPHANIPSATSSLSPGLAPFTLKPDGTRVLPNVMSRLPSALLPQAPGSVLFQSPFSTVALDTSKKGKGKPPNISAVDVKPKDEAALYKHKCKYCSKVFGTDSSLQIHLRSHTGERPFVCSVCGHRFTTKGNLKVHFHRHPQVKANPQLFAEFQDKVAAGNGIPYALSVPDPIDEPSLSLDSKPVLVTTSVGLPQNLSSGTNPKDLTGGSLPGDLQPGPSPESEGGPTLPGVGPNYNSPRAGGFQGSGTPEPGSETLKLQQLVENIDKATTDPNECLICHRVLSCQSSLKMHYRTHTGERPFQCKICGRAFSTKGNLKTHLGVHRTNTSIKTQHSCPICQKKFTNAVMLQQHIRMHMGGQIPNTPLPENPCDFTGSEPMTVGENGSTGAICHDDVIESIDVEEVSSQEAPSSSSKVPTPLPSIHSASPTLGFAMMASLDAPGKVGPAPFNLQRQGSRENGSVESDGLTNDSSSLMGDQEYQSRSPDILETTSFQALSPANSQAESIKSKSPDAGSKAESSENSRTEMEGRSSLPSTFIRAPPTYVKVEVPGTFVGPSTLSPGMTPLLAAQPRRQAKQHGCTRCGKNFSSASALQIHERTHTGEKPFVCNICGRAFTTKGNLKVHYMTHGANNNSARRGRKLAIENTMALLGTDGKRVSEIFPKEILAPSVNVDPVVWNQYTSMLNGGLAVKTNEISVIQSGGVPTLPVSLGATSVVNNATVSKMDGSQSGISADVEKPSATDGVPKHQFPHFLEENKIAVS
Method: universal PBM
Molecule type: double-stranded DNA, one strand shown
Medium: in vitro
Concentration: 600 nM
Notes: 8-mer, flanks averaged, mean of replicates
Reading: higher = stronger binding
Sequence | E-score
AATCCCTC | -0.0553
AATGGTCC | -0.00717
CCAAGGCC | -0.232
ATGCGTAC | 0.184
AAGTTCCG | -0.0624
GCCGGTAC | -0.233
CAAAGTTC | -0.111
CAGTCGAA | -0.169
AGCATGCG | -0.0277
ATTCATAG | 0.316
CAGCTTAC | 0.0659
AAGAGCAA | 0.00534
CCCCTTTA | -0.0999
AGTCAACG | -0.0514
ACTGGAAG | -0.0858
ATACGGCA | 0.128
CGGTTGGA | -0.163
AATAGTGG | 0.19
AGGCCATG | -0.188
CAGTGTCA | -0.00517
CTCCACGC | -0.13
CGTCCTAG | -0.203
AAATATCT | 0.326
GAAACGAC | -0.103
TGTCGGAA | -0.0415

Series 3
Target: CCNE1, cyclin fold, Cln2 fusion (human)
Method: yeast growth competition, sequencing
Medium: yeast
Notes: strong parent motif
Relative to: not given
Reading: higher = stronger binding
Starting sequence: INSM1 docking peptide (human); PKAIRKLHFEDEV; partner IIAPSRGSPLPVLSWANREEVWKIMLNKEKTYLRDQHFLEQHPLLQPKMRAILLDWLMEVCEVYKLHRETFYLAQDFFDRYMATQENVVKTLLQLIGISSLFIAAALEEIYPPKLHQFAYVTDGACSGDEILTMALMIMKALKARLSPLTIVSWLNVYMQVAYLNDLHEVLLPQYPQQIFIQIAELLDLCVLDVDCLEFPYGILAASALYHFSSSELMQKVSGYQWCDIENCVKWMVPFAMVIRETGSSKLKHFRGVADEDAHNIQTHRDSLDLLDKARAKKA
Change | normalised enrichment score
D11S | 3.5
F9P | -0.0542
F9T | -0.174
E10V | 2.86
F9S | 0.0519
K6S | 1.3
E12S | 4.03
A3T | 2.47
H8N | 5.24
L7K | 0.275
L7H | -0.202
D11W | 3.96
E10A | 2.87
K6F | 3.22
L7C | 0.392

Series 4
Target: RNA binding protein fox-1 homolog 2, RRM domain, GST-SBP tag (RBFOX2, Homo sapiens, UniProt O43251-10, residues 100-194)
Method: RNA Bind-n-Seq
Molecule type: RNA
Medium: in vitro
Concentration: 365 nM
Notes: natural RNA segment, single round, ends assumed
Relative to: no-protein control
Reading: higher = stronger binding
Shared flanks, not repeated: GGGAGUUCUACAGUCCGACGAUC … UGGAAUUCUCGGGUGCCAA
Construct (chain): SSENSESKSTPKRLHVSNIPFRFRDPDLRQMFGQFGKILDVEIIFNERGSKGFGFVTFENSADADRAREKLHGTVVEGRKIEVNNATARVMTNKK
Sequence | RBNS enrichment (R)
UAUGGGAAGUAAUGGGUCGCUCGCCGCCCAGAAGAGUUAACAAAAAACGGCAGCACCUCACGGCUGUCUUUCUAGGAUCCUCCAUUAUUCCUUAGAAGCAAGGACCUGGU | 0.32
UUUGAGAAAAUGCACAAAGCUCUGGGAGAAAGCAGCUACCAAGACUAUCUGGAACUGUGUCUGUCAGACCAAUGGUACCAGGGAGGCUGCAGUGCUGCCAGCUUUUCAAG | 0.383
UUGUAAGCUUGUGGAAAUUAUUUAAGUAUUUUAAAGCAUAUUUUCUUGUAAAUAUAUCCUAUCCGAAGUGUCAGCAGUUACGUUAGUUAAUACCGUGUUAUCUGCUGUAU | 0.923
CCACAGGAUUGAAGACUGCUUGGCAGUCCUCCCAAUCCCACACCUCCUGUUUGCCAGGGGAAAGAACCUAAAGACUUCGUGUGAUUGGGAGGGGUGGCAGACAGGAAGAA | 0.346
AUCUGGCUGGCUGCCUGCCUUAAACCCCCACCAAAGCUCCUUUUCAUAAAGGGGCUACCUUGAGAGAAAAUACAAACGCUCUCCUGUUGAUGAUUUGUGCAUUUUAAAAA | 2.65
UUCUACACUUUGCAGAUUUUAUUUAGGAUUUAAUUCUUUAAAGACUAUAUUCAUUUAGUCACUAUAGUGGAUCUCUUCUACUGCAAGUAUUCAUCUGAUUUUUAAAUUAU | 0.467
CCUUACCCUUUCUGUGUCCAUUGCUGGCCAUGGUCACUGAACUUGAAAUCACAGCCCUGCCAUUGGAGUGGGCGUUUGGAAUCCCUAGUGCUCCUGCUUUCAGUCCCCUC | 0.513
CUGUCUGUCUAUGUAUCUGUCUAUCUAUCUAUAUAUAUAUUCAGCUUCUUUACUGCUACCUACACAUUUUUCUCCAAAUUUUAUUAAUUUCAUAGUGUUUUGAUUUGGGU | 0.824
GGCUGGAACAGCAGAUUUCAGCUACAUAUAUGAACAAAUCCUUUAUUAUUAUUAUAAUUAUUUUUUUGCGUGAAAGUGUUACAUAUUCUUUCACUUGUAUGUACAGAGAG | 0.688
AGGUAUCUUGUCCCUCUCACUAAAAAGGAGUGUUGUGUGUGGCGGCCACGUGCUUCUAUGUGGUGUUUGACUCUGUACAAAUUCUAGUCCCAAAGAUCAAGUUGUCUGAA | 0.305
AGCCAUUGUGGUGCCGCCCCAGCUUCUGGAUACAGCCUUUUGGGUAAACACUGGGAACUCCAGAAGUUGUGGGGAGAGUGGGGAAUCAGACAGCCGCCUCUAGGGGCUGG | 0.254
ACACAGAGCAGACAAGAAAGAAGAGCCCUUGAAAACAAGGGAAUGAUUUUUGAGUCGUUAUCAAGCUAAGUGGCAAGCGGGAAGCUGAAACUCGUAUAGGUGAACAUUCU | 0.27

Series 5
Target: Ras GTPase-activating protein-binding protein 1, RRM domain (G3BP1, Homo sapiens, UniProt Q13283)
Chain of UniProt Q13283 (whole entry, looked up): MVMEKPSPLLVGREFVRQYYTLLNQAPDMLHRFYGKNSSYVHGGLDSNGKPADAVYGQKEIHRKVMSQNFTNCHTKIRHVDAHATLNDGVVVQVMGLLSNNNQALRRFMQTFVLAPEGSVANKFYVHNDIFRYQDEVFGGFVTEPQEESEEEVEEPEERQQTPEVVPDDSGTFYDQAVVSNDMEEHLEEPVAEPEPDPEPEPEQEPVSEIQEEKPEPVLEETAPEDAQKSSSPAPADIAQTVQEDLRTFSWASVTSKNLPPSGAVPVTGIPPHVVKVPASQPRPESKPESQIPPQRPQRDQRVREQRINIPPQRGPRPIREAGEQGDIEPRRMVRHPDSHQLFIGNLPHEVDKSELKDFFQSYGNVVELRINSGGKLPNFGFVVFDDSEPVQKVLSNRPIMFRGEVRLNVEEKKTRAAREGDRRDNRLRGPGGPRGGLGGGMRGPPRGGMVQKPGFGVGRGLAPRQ
Method: RNA Bind-n-Seq
Molecule type: RNA
Medium: in vitro
Concentration: 1 µM
Notes: whole 134-nt RNA, ends assumed
Together with: 150 mM KCl
Relative to: input library
Reading: higher = stronger binding
Shared flanks, not repeated: GGGAGUUCUACAGUCCGACGAUC … UGGAAUUCUCGGGUGUCAAGG
Sequence | log2 enrichment
GCCCAUGCUAAAGUAAGAUUGUCUAACAAAGUUGAAGCCAUUGAUGUGGAAGAGGCCAAACGCCUCCAUCGGGAAGCUCUGAAGCAGUCU | -0.0869
GAAAGAAGUAAAAACAAAUGGAAAUGCUUCGGAUAGUGGCAGGGGUGGGGGUUGCUAAGGAAAGGGUGGGAUGGGAGUGGGUAAAGAGUU | 1.18
UGCUCUUCACCAAGGAGGACGAGCCUGGCCGCUGCGACGUCCUGAGGAACCCCCUCUACCUCCAGAGUGUGAAGCUGCAGGAAGGUAAGC | -0.388
ACCAUGCAGGUGGGCAUCUUUGGCAAGUGGGGCAAGGGGGGGAUAGGGAGGGGGGUAACACUUUGGGAACAGGUGGUCCCAGGUCGUUUC | -0.4
GCAGGAAGUAAAAACAAAUGGAAAUGCUUCGGAUAGUGGCAGGGGUGGGGGUUGCUAAGGAAAGGGUGGGAUGGGAGAGGGUAAAGAGUU | 0.529
AAGUCCUGUGCUACACAUCGUAUGUACCGAAUCGGUUUUUUUGGUUUGGAAAAAGGAAAGUAUUAUGUUACGCCGUUCGGAUCUGCACUU | -0.306
CACAGACAAAAAGCACCCACACAGACACAGAGGGAAGGGGUUGGGAUGGGGACAGGGUGCACAGCAGGGCGGGGUAGGACCCCAGCCCCU | -0.225
UCCUGUGCUACACAUCGUAUGUACCGAAUCGGGGAAAAAAAGGGGAGGGGAAAAAGGGGAAAGUAUUAUGUUACGCCGUUCGGAUCUGCA | 0.588
ACCAUGCAGGUGGGCAUCUUUGGGAAUUGGGGCAAGGGGGGGAUAGGGAGGGGGGUAACACUUUGGGAACAGGUGGUCCCAGGUCGUUUC | -0.361
GAAAUUGAACCAGCAGCGAUGAAAGCAGCAGCUGCUGCCCCUGCCUCAGAGGAUGAGGACGAUGAGGAUGACGAAGAUGAUGAGGAUGAC | -0.236
ACCAUGCAGGUGGGCAUCAAAGGGAAGUGGGGCAAGGGGGGGAUAGGGAGGGGGGUAACACUUUGGGAACAGGUGGUCCCAGGUCGUUUC | -0.706
UGGGAGGUGGAUUUUGUUUAUUUUUUUAGCUCAUUUCCAGGGGUGGGAAUUUUUUUUUAAUACGUGUCAUGAAUAAAGUUGUUUUUGAAA | 1.74
UCAAGUCCUGUGCUACACAUCGUAUGUACCGAAUCGGCCGGGGCCGGGGCCGGGAAAGUAUUAUGUUACGCCGUUCGGAUCUGCACUUCC | -1.66
UGGGAGGUGGAUUUUGUUUAUUUUUUUAGCUCAUUUCCAGGGGUGGGAAUUUUGUUUUAAUAUGUGUCAUGAAUAAAGUUGUUUUUGAAA | 1.36
